Measurements collected from several papers.
Each line is one published result; not all experiments were run side by side. “And” joins repeats or separate records; there may be more than shown. Numbers after ± are the reported error.
uncharacterized protein: uncharacterized protein (Spodoptera exigua, UniProt F1CEY0)
Chain of UniProt P11388 (whole entry, looked up): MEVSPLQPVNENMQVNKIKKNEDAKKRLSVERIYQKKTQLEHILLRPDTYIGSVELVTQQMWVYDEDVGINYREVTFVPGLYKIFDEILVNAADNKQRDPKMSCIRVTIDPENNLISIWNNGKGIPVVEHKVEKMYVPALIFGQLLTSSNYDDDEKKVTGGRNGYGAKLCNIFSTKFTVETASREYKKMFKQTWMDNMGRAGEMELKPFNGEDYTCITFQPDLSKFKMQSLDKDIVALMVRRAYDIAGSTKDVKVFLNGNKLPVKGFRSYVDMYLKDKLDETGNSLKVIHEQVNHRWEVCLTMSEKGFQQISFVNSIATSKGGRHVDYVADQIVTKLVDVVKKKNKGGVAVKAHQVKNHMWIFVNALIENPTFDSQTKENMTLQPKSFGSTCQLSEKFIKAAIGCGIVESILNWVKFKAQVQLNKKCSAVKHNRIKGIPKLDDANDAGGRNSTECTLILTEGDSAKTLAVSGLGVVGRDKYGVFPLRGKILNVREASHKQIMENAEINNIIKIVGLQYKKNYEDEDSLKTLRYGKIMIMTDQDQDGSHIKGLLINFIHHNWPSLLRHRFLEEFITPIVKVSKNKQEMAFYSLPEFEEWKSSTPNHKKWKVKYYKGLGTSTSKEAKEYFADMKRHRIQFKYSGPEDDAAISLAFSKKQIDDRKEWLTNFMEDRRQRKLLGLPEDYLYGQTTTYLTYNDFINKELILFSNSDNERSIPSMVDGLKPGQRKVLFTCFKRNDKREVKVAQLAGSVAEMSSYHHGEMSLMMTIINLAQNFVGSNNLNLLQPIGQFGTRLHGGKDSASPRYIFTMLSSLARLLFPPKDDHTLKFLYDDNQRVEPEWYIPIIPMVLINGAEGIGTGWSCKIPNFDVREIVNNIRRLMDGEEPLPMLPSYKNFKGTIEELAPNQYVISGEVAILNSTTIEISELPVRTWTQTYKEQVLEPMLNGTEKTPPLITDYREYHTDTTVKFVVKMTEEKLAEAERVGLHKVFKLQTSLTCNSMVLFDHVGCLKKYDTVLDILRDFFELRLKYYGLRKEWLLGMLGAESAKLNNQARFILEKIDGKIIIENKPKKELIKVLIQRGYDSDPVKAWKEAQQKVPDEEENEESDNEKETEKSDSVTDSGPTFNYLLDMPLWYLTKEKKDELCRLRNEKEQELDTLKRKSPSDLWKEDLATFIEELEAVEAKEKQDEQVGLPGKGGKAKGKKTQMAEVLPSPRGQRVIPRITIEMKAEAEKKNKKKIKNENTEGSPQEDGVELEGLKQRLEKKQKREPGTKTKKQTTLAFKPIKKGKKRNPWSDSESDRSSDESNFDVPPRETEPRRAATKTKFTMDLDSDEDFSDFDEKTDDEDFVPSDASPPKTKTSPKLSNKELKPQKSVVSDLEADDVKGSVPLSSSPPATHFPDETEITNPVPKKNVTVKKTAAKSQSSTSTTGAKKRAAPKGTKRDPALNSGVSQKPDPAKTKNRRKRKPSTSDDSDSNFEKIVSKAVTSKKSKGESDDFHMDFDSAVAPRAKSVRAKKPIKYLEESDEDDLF
Chain of UniProt P00441 (whole entry, unmodified, looked up): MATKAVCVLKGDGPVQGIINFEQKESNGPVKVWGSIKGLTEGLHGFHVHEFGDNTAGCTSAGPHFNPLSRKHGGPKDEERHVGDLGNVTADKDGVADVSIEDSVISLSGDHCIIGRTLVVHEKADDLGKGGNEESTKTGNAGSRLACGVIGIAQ
Chain of UniProt P51575 (whole entry, unmodified, looked up): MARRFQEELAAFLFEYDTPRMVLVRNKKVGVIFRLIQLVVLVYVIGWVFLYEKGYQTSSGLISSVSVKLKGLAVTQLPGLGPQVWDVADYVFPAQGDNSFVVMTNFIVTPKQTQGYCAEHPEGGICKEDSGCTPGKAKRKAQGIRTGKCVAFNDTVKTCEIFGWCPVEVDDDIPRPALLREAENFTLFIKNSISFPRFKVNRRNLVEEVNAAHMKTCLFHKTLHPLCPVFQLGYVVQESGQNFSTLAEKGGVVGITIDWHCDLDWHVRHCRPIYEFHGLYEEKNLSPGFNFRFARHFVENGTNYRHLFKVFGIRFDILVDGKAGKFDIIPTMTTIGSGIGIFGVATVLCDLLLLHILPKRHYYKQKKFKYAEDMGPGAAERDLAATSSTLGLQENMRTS
Chain of UniProt Q9HCF6 (whole entry, looked up): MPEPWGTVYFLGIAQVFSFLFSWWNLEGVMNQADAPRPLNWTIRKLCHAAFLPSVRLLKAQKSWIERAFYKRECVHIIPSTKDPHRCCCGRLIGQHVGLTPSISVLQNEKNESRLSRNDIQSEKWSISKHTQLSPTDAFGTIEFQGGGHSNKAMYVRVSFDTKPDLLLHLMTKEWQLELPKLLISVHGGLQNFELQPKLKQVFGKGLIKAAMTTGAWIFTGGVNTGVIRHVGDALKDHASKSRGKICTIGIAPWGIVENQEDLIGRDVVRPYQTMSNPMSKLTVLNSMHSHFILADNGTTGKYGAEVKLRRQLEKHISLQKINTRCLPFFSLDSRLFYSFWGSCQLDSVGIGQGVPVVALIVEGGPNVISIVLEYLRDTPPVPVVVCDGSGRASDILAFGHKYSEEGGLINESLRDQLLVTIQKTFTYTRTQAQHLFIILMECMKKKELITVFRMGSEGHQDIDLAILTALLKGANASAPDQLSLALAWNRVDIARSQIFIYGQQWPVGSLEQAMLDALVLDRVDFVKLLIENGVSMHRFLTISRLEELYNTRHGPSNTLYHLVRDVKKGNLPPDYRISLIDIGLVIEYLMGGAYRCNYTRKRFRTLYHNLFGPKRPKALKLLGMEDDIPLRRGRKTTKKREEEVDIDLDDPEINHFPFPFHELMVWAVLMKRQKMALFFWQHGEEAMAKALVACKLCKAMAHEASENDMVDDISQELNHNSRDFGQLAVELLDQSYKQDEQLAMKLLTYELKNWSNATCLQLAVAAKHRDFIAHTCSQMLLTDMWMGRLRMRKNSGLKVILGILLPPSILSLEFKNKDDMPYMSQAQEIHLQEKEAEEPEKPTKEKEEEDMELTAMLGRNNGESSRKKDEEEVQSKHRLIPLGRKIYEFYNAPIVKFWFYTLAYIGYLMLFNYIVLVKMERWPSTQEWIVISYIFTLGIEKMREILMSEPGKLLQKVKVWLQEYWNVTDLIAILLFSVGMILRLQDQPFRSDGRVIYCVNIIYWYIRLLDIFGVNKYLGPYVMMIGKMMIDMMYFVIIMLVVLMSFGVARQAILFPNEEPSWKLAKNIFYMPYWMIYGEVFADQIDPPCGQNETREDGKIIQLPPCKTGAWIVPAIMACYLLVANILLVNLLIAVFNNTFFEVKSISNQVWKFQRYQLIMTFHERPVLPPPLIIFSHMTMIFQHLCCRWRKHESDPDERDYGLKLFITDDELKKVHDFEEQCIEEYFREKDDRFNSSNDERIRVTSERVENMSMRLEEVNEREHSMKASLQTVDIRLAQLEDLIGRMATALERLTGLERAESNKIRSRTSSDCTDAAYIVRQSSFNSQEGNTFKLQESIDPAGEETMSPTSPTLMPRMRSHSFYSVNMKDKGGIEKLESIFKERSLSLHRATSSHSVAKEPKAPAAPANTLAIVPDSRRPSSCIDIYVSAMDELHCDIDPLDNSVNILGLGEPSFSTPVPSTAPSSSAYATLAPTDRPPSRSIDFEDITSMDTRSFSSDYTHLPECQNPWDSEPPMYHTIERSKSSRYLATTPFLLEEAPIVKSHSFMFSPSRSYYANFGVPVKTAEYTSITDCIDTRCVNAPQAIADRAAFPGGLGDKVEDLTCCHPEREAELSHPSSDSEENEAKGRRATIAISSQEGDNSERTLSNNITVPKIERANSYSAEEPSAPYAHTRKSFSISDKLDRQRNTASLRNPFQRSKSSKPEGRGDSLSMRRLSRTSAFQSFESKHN
Chain of UniProt Q16288 (whole entry, looked up): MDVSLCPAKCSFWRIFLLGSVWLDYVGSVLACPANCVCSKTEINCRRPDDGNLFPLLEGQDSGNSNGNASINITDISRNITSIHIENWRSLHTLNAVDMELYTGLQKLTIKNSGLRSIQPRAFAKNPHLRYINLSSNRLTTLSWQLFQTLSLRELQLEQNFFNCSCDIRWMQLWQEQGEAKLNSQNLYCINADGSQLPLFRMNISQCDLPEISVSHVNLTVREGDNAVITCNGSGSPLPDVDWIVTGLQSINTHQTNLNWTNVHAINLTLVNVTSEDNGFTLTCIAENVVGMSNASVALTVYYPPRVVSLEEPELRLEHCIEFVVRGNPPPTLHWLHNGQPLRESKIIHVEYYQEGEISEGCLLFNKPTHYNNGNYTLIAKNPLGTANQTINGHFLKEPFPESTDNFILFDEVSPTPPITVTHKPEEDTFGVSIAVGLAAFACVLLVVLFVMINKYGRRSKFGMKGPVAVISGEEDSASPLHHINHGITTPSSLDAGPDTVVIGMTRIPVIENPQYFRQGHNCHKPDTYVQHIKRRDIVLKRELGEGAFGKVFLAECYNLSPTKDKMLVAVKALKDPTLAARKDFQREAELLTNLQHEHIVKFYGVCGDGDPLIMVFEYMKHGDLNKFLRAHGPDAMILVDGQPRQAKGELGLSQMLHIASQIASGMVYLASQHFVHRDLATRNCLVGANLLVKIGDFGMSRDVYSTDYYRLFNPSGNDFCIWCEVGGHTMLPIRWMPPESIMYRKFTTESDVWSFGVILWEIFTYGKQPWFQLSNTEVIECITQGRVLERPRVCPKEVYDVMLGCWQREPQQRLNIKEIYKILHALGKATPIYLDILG
Chain of UniProt P49674 (whole entry, looked up): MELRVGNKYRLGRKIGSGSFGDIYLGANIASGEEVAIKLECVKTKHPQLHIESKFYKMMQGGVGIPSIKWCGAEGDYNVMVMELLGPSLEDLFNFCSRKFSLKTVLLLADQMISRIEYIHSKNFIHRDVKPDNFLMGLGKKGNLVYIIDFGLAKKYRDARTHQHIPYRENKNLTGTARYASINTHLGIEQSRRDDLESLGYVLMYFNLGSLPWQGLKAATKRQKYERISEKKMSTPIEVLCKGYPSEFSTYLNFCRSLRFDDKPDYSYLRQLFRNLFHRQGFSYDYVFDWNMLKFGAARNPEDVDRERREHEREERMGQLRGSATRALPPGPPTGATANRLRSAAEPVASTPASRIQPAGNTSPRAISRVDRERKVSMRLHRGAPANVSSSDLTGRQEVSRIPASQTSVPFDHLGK

N[C@H](CNC(=O)c1cc(Br)c(-c2ccccc2F)s1)C(=O)O — Hill slope (Glutamate receptor ionotropic, NMDA 1, with GluN2C (Grin1, Rattus norvegicus, UniProt P35439, F754L); rat; with: glutamate 300 µM): 1.59
Nc1ncnc2c1ncn2[C@@H]1O[C@H](COP(=O)(O)OP(=O)(O)OP(=O)(O)O)[C@@H](O)[C@H]1O — Km (CKMT1A (Homo sapiens, UniProt P12532, H99A); substrate, ADP-Glo luminescence; pH 8.5, forward reaction, H61A mutant, with: second substrate in excess): 300 ± 100 µM
COc1ccc(F)cc1C(=O)NCc1ccc(-c2nn([C@@H](C)C(F)(F)F)c(N)c2C(N)=O)cc1 — remaining activity (CSNK1E (Homo sapiens, UniProt P49674); kinase activity, inhibitor, HotSpot radiometric; 100 nM, with: ATP 10 µM): 85.7 ± 0.6%
CC[C@@H]1[C@H](F)C(=O)N[C@@H]1COc1nccc2cc(C(N)=O)c(OC)cc12 — inhibition (EPHA2 (Homo sapiens, UniProt P29317); ATP probe binding, KiNativ profiling, item: activation loop probe site; THP-1 cell lysate; 0.04 mM): -11.2%
Clc1ccccc1C(c1ccccc1)(c1ccccc1)n1ccnc1 — current density (TRPM3 (Homo sapiens, UniProt Q9HCF6); whole-cell patch clamp; HEK-293T expressing hTRPM3-YFP; 10 µM, at +80 mV, with: pregnenolone sulfate 40 µM, DTT pretreatment): 103 ± 19.9 pA/pF
C=CC(=C)CCC=C(C)C — relative fluorescence (uncharacterized protein; binding, competitor, fluorescence displacement; 20 µM, pH 7.4, with: 1-NPN 20 µM; baseline: 1-NPN alone): 64.7%
O=c1nc(SCc2cc(F)cc(C(F)(F)F)c2)nc(SCc2ccc3sccc3c2)[nH]1 — ATP hydrolysis rate (TOP2A (Homo sapiens, UniProt P11388); ATPase activity; 3.9 µM, with: ATP 0.1 mM): 1.17 µM/min and 0.778 µM/min
Nc1ncnc2c1ncn2[C@@H]1O[C@H](COP(=O)(O)CP(=O)(O)OP(=O)(O)O)[C@@H](O)[C@H]1O — specific binding (P2X purinoceptor 1 (P2RX1, Homo sapiens, UniProt P51575, R139A); saturation binding; HEK293; 1 nM): 74.5 CCPM and 48.5 CCPM
C=C1[C@H]2CC[C@H](C2)C1(C)C — relative fluorescence (uncharacterized protein; binding, competitor, fluorescence displacement; 20 µM, pH 7.4, with: 1-NPN 20 µM; baseline: 1-NPN alone): 76.5%
Nc1ncnc2c1ncn2[C@@H]1O[C@H](COP(=O)(O)OP(=O)(O)OP(=O)(O)O)[C@@H](O)[C@H]1O — kcat (Hexokinase-3 (HK3, Homo sapiens, UniProt P52790, R807A); substrate; mutant R807A, with: glucose 0.5 mM): 71 ± 7 s⁻¹
C=CC(=O)N1CCC[C@@H](n2nc(-c3ccc(Oc4ccccc4)cc3)c3c(N)ncnc32)C1 — remaining activity (NTRK3 (Homo sapiens, UniProt Q16288); 1 µM): 116%
C#Cc1c(F)ccc2cc(O)cc(-c3ncc4c(N5CC6CCC(C5)N6)nc(OC[C@@]56CCCN5C[C@H](F)C6)nc4c3F)c12 — dissociation rate constant koff (GTPase KRas, GDP-bound (KRAS, Homo sapiens, UniProt P01116, Q61H); SPR): 0.000683 ± 0.00014 s⁻¹
CC(=O)N[C@H]1[C@@H](OP(=O)(O)OP(=O)(O)OC[C@H]2O[C@@H](n3ccc(=O)[nH]c3=O)[C@H](O)[C@@H]2O)O[C@H](CO)[C@@H](O)[C@@H]1O — Km (Bacillus thuringiensis ThuS; substrate; sugar donor): < 10 µM
[O-][S+]1CCCCS1 (stereo not drawn) — SOD1 dimer level (SOD1 (Homo sapiens, UniProt P00441, G94A); target engagement; SOD1 G93A transgenic mice, brain; intravenous, 10 mg/kg once daily): 65% and 63%
Cc1occc(=O)c1[O-].[Cl-].[W+4].c1cc[cH-]c1.c1cc[cH-]c1 — Gibbs free energy change (Albumin (ALB, Homo sapiens, UniProt P02768); binding, fluorescence quenching; 288 K): -5.37 kcal/mol

Some of these lines once more:
C=CC(=O)N1CCC[C@@H](n2nc(-c3ccc(Oc4ccccc4)cc3)c3c(N)ncnc32)C1 — remaining activity (NTRK3 (Homo sapiens, UniProt Q16288); 1 µM): 116%
C#Cc1c(F)ccc2cc(O)cc(-c3ncc4c(N5CC6CCC(C5)N6)nc(OC[C@@]56CCCN5C[C@H](F)C6)nc4c3F)c12 — dissociation rate constant koff (GTPase KRas, GDP-bound (KRAS, Homo sapiens, UniProt P01116, Q61H); SPR): 0.000683 ± 0.00014 s⁻¹
CC(=O)N[C@H]1[C@@H](OP(=O)(O)OP(=O)(O)OC[C@H]2O[C@@H](n3ccc(=O)[nH]c3=O)[C@H](O)[C@@H]2O)O[C@H](CO)[C@@H](O)[C@@H]1O — Km (Bacillus thuringiensis ThuS; substrate; sugar donor): < 10 µM
